Assay results of several laboratories.
Each numbered part is a random draw from the data of one study; scales do not carry over between parts. Positions count from the first letter of the parent shown.

Block 1 — target: CCND3, cyclin fold, Cln2 fusion (human); method: yeast growth competition, sequencing; sample: yeast; notes: weak parent motif; reference: not given; reading: higher = stronger binding; endpoint: normalised enrichment score
Parent: NPAT docking peptide (human); PCHRRVLCFDSTT
PCHRRVACFDSTT [L7A]: 0.0982
PCHRRVLCLDSTT [F9L]: -0.157
PCHRKVLCFDSTT [R5K]: 0.218
PCHRRVLCFDATT [S11A]: 0.128
PCARRVLCFDSTT [H3A]: 0.16
PCHRRVLAFDSTT [C8A]: 0.0903
PCHRAVACFDSTT [R5A L7A]: 0.086
PCHRRVLCFASTT [D10A]: 0.115
PCHRRVLCFDSAT [T12A]: 0.0624
PCHRRVLCFDSTA [T13A]: 0.0238

Block 2 — target: OGT, full length, His-tagged (human); method: phage display, sequencing; sample: in vitro; tested at: 1 µg OGT; reference: input library; reading: higher = stronger binding; endpoint: fold enrichment
Notes: single substitutions, 15-mer displayed peptide, unchanged parent 19.6
Parent: peptide; TAPFYPPAYQIQVFK; partner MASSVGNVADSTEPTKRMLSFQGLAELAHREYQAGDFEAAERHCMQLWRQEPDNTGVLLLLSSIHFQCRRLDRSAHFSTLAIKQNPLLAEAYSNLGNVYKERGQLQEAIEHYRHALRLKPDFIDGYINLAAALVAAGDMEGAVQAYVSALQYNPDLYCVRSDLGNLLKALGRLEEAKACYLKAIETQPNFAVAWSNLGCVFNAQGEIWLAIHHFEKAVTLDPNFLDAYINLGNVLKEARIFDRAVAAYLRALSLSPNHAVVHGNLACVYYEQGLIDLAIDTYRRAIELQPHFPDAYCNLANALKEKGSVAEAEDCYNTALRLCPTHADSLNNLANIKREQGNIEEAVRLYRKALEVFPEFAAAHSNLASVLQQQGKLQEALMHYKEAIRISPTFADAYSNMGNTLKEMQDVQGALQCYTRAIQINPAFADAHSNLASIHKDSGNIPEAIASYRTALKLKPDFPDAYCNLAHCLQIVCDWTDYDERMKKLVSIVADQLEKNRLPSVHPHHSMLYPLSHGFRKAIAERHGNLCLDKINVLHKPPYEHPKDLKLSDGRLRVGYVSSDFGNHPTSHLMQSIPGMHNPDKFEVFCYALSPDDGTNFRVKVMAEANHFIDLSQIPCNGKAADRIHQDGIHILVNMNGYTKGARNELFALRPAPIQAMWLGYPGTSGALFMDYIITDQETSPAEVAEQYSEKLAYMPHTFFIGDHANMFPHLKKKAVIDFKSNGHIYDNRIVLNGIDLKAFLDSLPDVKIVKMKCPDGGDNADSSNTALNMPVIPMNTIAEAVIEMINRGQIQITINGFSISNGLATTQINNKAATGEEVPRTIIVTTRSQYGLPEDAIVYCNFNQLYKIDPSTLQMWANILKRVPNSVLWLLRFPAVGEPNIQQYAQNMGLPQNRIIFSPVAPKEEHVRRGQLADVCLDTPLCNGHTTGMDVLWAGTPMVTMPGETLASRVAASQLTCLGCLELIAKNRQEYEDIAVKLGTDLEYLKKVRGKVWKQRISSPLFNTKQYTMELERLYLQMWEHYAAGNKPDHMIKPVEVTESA
TAPFYPPAYQIQVPK [F14P]: 23.6 fold
TAPFYPPAYQYQVFK [I11Y]: 0.813 fold
TAPFYTPAYQIQVFK [P6T]: 1.21 fold
TAPFYPPALQIQVFK [Y9L]: 5.62 fold
TAPFYPPAYQIKVFK [Q12K]: 16.2 fold
TAPFYPPSYQIQVFK [A8S]: 3.54 fold
TAPFYPHAYQIQVFK [P7H]: 1.71 fold
TAPFYPPAYQIQFFK [V13F]: 18.9 fold
TAPFYPPAYNIQVFK [Q10N]: 0.911 fold
TAPFYPPAVQIQVFK [Y9V]: 3.12 fold
TAPFYPPAYQIQVFP [K15P]: 8.17 fold
TAPFYPPTYQIQVFK [A8T]: 1.58 fold
TAEFYPPAYQIQVFK [P3E]: 24.8 fold
TADFYPPAYQIQVFK [P3D]: 26.4 fold
TAPFYLPAYQIQVFK [P6L]: 1.55 fold
TPPFYPPAYQIQVFK [A2P]: 15.4 fold
IAPFYPPAYQIQVFK [T1I]: 22.5 fold
TAPFYPPAYSIQVFK [Q10S]: 1.23 fold
TAPRYPPAYQIQVFK [F4R]: 13.2 fold
TFPFYPPAYQIQVFK [A2F]: 19.2 fold
TAPIYPPAYQIQVFK [F4I]: 18.1 fold
TAPFYPPAYQIQAFK [V13A]: 11 fold
TAPFYPPAYQIQGFK [V13G]: 3.44 fold

Block 3 — method: protein-binding microarray; molecule type: double-stranded DNA, one strand shown; sample: in vitro; tested at: 2200 nM top; notes: 60-bp whole probe; added: salmon DNA 0.4 mg/ml; reference: random background probes; reading: higher = stronger binding; endpoint: fitted relative affinity; all sequences stand within: GCCTAGCAC … GTCTTGATTCGCTTGACGCTGCTG
Target: Interferon regulatory factor 7, full length, phosphomimetic (IRF7, Homo sapiens, UniProt Q92985, residues 1-503, S471D/S472D/S475D/S476D/S477D/S483D/S484D/S487D)
Residues (chain): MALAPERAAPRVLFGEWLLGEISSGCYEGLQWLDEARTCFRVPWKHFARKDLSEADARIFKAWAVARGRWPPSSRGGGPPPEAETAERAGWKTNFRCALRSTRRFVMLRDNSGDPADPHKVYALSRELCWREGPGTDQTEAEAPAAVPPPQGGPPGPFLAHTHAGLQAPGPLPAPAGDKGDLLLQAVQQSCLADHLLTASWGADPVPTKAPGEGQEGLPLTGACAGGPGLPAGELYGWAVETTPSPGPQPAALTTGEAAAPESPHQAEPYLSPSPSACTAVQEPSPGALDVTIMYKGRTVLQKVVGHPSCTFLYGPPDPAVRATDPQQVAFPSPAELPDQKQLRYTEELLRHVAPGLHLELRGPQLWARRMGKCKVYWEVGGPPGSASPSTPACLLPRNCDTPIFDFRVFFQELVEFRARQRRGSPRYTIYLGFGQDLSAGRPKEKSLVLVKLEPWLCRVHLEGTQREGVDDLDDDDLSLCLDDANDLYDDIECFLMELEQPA
TCAATTTTCTGAATGCTACTGTGCTAG: 2.71 z-score
TTAGAACCGGGGTTTCGATTAGTGCTA: 2.22 z-score
GACGGACTGGGTCTCGGGCCGTGCTAG: -1.01 z-score
TTTGCTTTAGTCATTCACTGAGTGCTA: 1.18 z-score
AGAGTCACCCATCTCAACAAGTGCTAG: 0.312 z-score
GACGGAGTGCTACTGCTGACGTGCTAG: 0.276 z-score
GACGATCTCCTTATCCTGACGTGCTAG: 1.36 z-score
TTAGATTACAGACTGGATTAGTGCTAG: -0.169 z-score
TTAGGTCTCCTTTGCCTTTAGTGCTAG: 0.771 z-score
GTTTCTTTTCTTTTCTTTTTGTGCTAG: 8.92 z-score
GACGGACTGGACACTAGGGACGTGCTA: -0.671 z-score
ATATGTGTATATATAATATAGTGCTAG: 0.483 z-score
CTTATTCTCTACTTGTGTCTGTGCTAG: 2.24 z-score
GACGGTTTCCTTATCCTGAGGTGCTAG: 2.61 z-score
TTAGATCTCTGTATCGATTAGTGCTAG: 0.219 z-score
GACGAACTGGGGTTTCCAGACGTGCTA: -0.0667 z-score
CCAGCTCTGATGTTGGGAAAGTGCTAG: -0.0121 z-score
TTAGAACAGGGGTATCGATTAGTGCTA: 0.0326 z-score
GACGATTTCAGACTGTAGACGTGCTAG: 0.356 z-score

Block 4 — method: DHFR PCA, deep sequencing; sample: yeast; added: (+)-ABA 2500 µM; reference: wild-type fitted maximum; reading: higher = stronger binding; endpoint: relative binding score
Target: ABI1, truncated, D143A, DHFR fusion (Arabidopsis thaliana)
Notes: methotrexate growth selection, single substitutions
Parent: PYL1, truncated, DHFR fusion (Arabidopsis thaliana); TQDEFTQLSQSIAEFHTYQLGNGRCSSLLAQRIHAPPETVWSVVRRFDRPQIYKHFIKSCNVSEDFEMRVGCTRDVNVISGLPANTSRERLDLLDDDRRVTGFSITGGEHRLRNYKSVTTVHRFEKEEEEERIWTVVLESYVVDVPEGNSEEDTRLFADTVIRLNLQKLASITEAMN
G108S: 81.8%
R24C: 98.1%
L112D: -8.1%
L91Q: 64.1%
E129P: 106%
S42P: 101%
R45P: -6.08%
I162Y: -8.7%
T101C: 97.8%
S87L: 10.5%
A13E: 103%
R163S: 85.3%
V142K: 83.3%
K168E: 90.6%
F66K: 99.6%
S80D: 71.2%
R111V: 56.5%
V161A: 66.8%
D96C: 88.5%

Other studies, line by line
PhoQ, residues 284 288 289 292 302 303 SCCLKL  fold induction (PhoP, residues 12 14 15 18 19 NMSSL (Escherichia coli, UniProt P23836); Sort-seq, refers to: YFP reporter; E. coli; PhoQ-PhoP variant library, added: 10 µM Mg2+; reference: high Mg2+ state, higher = stronger signaling): 28.7

Repeated from above (block 2):
TAPFYPPSYQIQVFK [A8S]: 3.54 fold
TAPFYPPAYSIQVFK [Q10S]: 1.23 fold
TAPFYPPAYQIQAFK [V13A]: 11 fold
TAPFYLPAYQIQVFK [P6L]: 1.55 fold
TAPFYPPAYQIQFFK [V13F]: 18.9 fold
TAPFYPPAYNIQVFK [Q10N]: 0.911 fold
TAPIYPPAYQIQVFK [F4I]: 18.1 fold
TAPFYPPAVQIQVFK [Y9V]: 3.12 fold
TAPFYPPAYQYQVFK [I11Y]: 0.813 fold
TAPFYPPAYQIQVPK [F14P]: 23.6 fold
TAPFYPPAYQIQGFK [V13G]: 3.44 fold
